Results from different studies.
Lines come from different studies, so protocols differ. ± gives the spread as reported.
MCA2: Metacaspase-2 (MCA2, Trypanosoma brucei brucei, UniProt Q585F3)
UniProt Q585F3, sequence (whole entry, looked up): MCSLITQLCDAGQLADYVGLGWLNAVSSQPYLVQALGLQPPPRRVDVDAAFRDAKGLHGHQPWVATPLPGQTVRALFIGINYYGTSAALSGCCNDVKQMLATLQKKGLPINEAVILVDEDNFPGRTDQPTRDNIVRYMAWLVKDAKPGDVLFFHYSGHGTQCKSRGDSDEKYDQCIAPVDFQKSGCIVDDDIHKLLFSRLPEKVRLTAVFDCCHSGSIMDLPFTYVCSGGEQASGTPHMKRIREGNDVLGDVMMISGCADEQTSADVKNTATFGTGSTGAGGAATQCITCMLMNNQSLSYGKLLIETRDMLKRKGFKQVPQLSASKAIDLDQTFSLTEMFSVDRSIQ
blaNDM-1: Metallo-beta-lactamase type 2 (blaNDM-1, Klebsiella pneumoniae, UniProt C7C422)
UniProt C7C422, sequence (whole entry, looked up): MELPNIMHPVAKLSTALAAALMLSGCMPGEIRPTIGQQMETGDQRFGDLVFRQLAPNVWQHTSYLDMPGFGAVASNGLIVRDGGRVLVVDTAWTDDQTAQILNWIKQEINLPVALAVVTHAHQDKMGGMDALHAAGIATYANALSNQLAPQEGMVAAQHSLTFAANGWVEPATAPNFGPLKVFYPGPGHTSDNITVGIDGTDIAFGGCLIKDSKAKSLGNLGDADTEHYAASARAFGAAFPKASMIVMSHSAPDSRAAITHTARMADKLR
Oprm1: Mu-type opioid receptor (Oprm1, Rattus norvegicus, UniProt P33535)
UniProt P33535, sequence (whole entry, looked up): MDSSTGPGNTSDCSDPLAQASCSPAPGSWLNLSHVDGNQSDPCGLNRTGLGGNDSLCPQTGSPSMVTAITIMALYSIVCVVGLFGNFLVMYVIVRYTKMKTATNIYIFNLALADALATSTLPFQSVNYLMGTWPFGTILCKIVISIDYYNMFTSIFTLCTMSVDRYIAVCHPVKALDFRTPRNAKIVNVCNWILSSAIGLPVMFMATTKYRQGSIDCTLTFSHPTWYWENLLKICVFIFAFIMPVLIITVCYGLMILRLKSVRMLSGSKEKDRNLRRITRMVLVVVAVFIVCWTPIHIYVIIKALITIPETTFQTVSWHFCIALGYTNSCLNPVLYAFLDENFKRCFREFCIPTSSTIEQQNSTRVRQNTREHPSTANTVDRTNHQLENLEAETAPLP
Genome polyprotein NS2B-NS3 protease: Genome polyprotein, NS2B-NS3 protease (ZIKV, UniProt A0A024B7W1)
UniProt Q6DWJ6, sequence (whole entry, looked up): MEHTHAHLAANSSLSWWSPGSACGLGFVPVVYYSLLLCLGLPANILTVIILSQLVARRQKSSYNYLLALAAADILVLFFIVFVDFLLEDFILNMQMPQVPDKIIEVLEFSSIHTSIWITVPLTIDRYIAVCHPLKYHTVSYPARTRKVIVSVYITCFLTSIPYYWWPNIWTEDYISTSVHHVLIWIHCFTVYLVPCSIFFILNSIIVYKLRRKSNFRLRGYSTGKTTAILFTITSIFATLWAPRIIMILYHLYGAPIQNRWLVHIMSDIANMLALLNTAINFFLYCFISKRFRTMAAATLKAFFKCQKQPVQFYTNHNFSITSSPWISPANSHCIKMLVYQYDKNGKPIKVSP
UniProt Q2FDS6, sequence (whole entry, looked up): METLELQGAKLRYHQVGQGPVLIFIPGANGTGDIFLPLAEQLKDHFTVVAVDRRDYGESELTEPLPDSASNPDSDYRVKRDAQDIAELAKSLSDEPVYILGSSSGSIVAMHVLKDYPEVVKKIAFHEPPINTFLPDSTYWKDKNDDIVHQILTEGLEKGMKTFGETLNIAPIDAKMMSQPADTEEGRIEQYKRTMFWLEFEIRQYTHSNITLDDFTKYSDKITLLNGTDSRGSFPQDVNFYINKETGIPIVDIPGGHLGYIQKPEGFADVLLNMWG
UniProt P15090, sequence (whole entry, looked up): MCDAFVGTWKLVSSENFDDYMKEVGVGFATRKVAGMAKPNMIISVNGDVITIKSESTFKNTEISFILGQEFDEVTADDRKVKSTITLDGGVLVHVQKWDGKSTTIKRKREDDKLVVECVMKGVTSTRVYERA
UniProt Q60492, sequence (whole entry, looked up): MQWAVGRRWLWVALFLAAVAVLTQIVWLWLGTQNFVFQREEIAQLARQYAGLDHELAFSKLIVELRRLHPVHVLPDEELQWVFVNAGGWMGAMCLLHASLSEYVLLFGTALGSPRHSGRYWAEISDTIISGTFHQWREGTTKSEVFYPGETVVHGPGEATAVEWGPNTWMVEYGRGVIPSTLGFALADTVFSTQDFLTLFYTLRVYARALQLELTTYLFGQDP
UniProt Q96SB4, sequence (whole entry, looked up): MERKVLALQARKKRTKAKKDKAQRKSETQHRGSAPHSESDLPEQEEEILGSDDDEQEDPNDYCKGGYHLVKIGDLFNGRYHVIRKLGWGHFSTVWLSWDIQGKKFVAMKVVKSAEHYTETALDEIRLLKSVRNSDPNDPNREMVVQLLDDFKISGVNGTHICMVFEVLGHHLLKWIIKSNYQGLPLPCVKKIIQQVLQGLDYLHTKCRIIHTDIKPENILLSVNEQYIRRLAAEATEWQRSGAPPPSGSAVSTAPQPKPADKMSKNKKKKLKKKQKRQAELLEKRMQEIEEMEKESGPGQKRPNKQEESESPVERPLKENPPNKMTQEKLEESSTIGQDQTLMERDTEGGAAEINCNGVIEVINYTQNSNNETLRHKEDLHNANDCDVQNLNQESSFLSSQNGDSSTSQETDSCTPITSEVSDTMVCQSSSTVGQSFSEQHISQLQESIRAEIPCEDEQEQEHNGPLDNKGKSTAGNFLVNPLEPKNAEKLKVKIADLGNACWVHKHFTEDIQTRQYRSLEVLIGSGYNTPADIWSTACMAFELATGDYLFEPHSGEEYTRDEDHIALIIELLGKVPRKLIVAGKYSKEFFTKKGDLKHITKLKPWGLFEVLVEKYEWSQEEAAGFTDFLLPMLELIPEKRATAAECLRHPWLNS
UniProt Q00526, sequence (whole entry, looked up): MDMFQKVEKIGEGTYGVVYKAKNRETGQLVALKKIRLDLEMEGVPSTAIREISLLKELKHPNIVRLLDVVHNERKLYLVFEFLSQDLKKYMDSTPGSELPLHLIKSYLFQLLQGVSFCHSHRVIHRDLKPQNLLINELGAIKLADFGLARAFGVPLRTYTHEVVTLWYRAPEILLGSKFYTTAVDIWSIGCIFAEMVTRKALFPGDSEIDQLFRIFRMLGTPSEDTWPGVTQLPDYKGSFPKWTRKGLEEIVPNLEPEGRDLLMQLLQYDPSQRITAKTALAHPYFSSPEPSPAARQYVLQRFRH
UniProt Q8IY84, sequence (whole entry, looked up): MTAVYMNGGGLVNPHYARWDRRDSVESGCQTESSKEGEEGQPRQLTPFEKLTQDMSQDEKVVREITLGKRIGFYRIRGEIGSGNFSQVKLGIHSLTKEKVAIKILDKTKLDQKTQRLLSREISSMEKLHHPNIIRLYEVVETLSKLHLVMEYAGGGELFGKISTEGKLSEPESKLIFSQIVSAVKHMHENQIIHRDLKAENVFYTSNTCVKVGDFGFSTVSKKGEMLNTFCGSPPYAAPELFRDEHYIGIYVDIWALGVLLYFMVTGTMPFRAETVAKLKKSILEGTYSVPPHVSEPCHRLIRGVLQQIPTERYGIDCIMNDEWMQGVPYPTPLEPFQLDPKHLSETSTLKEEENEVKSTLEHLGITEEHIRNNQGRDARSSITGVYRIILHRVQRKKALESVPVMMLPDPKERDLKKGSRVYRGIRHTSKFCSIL
UniProt P41595, sequence (whole entry, looked up): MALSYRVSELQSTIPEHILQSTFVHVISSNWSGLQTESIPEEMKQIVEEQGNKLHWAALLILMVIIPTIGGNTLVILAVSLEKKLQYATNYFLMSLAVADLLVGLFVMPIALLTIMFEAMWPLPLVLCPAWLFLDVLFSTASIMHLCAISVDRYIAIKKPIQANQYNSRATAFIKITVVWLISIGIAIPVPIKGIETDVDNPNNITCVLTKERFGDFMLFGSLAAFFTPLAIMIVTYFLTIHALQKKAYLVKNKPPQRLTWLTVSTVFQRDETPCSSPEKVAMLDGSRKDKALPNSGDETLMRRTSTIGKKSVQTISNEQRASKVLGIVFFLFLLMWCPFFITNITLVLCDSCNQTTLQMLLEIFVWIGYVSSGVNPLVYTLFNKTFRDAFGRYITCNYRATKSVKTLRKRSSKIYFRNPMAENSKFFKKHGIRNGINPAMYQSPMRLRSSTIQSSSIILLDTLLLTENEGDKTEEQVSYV
UniProt Q5U3Y7, sequence (whole entry, looked up): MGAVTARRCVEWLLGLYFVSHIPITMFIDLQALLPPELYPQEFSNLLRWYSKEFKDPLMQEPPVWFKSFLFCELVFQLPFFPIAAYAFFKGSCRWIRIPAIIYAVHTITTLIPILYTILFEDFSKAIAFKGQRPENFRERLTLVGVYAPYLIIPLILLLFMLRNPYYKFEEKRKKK
UniProt P32300, sequence (whole entry, looked up): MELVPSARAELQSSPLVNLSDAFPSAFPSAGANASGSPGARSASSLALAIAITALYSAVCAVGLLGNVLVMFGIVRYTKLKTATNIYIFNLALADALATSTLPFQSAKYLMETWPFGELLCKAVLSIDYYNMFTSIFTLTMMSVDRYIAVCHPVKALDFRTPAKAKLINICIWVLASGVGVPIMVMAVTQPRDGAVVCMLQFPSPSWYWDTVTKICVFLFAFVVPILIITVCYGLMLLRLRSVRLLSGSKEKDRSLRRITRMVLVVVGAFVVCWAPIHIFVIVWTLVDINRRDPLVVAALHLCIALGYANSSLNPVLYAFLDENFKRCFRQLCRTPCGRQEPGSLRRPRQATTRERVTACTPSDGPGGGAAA
UniProt Q16816, sequence (whole entry, looked up): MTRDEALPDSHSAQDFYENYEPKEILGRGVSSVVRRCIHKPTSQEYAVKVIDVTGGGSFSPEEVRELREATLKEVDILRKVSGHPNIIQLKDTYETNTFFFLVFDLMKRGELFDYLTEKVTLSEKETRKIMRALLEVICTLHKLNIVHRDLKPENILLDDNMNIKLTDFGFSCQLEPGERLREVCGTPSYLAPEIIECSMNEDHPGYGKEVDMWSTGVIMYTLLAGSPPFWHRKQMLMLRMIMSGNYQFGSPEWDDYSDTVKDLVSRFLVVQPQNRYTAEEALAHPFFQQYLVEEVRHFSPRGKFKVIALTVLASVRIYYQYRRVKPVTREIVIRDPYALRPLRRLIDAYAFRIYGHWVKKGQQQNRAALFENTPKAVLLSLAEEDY

O=C(O)C(F)(OC(F)(F)C(F)(F)C(F)(F)F)C(F)(F)F (stereo not shown) — Ki (Fatty acid-binding protein, adipocyte (FABP4, Homo sapiens, UniProt P15090); ligand displacement, fluorescence): 19500 nM
COc1cc2c(cc1O)C(CCc1ccc(Cl)cc1)N(C)CC2 (stereo not shown) — Ki (Sigma non-opioid intracellular receptor 1 (SIGMAR1, Cavia porcellus, UniProt Q60492); cell-free assay, radioligand): 370 nM
CC[C@H](C)[C@H](NC(=O)[C@H](CCCNC(=N)N)NC(=O)[C@H](CCCNC(=N)N)NC(=O)[C@H](CC(C)C)NC(=O)[C@H](Cc1ccccc1)NC(=O)CNC(=O)CNC(=O)[C@@H](N)Cc1ccc(O)cc1)C(=O)N[C@@H](CCCNC(=N)N)C(=O)N1CCC[C@H]1C(=O)N[C@@H](CCCCN)C(=O)N[C@@H](CC(C)C)C(=O)N[C@@H](CCCCN)C(=O)O — Ki (Probable G-protein coupled receptor 139 (GPR139, Homo sapiens, UniProt Q6DWJ6); ligand displacement, radioligand; cell membranes): 56.6 nM
CN(C)[C@H]1C[C@@]23CC[C@@]4(O2)C(=CC[C@]2(C)[C@@H](c5ccc6ccncc6c5)CC[C@H]24)C=C3[C@@H](O)[C@@H]1O — inhibition (Phosphorylase b kinase gamma catalytic chain, skeletal muscle/heart isoform (PHKG1, Homo sapiens, UniProt Q16816); probe labelling, inhibitor, KiNativ ATP probe MS; native lysate; 1 µM): 9.8%
CC(C)(COP(=O)(O)OP(=O)(O)OC[C@H]1O[C@@H](n2cnc3c(N)ncnc32)[C@H](O)[C@@H]1OP(=O)(O)O)[C@@H](O)C(=O)NCCC(=O)NCCSCC(=O)N[C@@H](CO)C(=O)NCC(=O)N[C@@H](CCCNC(=N)N)C(=O)N[C@@H](CCCCN)C(=O)N[C@@H](CCCCN)C(=O)N[C@@H](CCCNC(=N)N)C(=O)N[C@@H](CCCNC(=N)N)C(=O)N[C@@H](CCC(N)=O)C(=O)N[C@@H](CCCNC(=N)N)C(=O)N[C@@H](CCCNC(=N)N)C(=O)N[C@@H](CCCNC(=N)N)C(N)=O — Ki (N-alpha-acetyltransferase 40 (NAA40, Homo sapiens, UniProt Q86UY6); enzyme activity, inhibitor, fluorescence): 169 nM
C[C@H](NC(=O)[C@H](CO)NC(=O)[C@H](CO)NC(=O)[C@H](CCCNC(=N)N)NC(=O)[C@H](CCC(=O)O)NC(=O)[C@H](CCCCN)NC(=O)c1ccccc1N)C(=O)N[C@@H](CCC(N)=O)C(=O)NCCNc1ccc([N+](=O)[O-])cc1[N+](=O)[O-] — Ki (MCA2; enzyme activity, competitive inhibitor; Trypanosoma brucei; with: Z-FR-AMC substrate): 7800 nM
CCCC[C@@H]1NC(=O)[C@@H](CCC(N)=O)NC(=O)[C@H]2CCCN2C(=O)[C@H](Cc2c[nH]c3ccccc23)NC(=O)[C@@H]2C[C@@H](O)CN2C(=O)[C@H](Cc2ccccc2CN)NC(=O)[C@@H]2CCCN2C(=O)[C@@H](CS)NC1=O — Ki (blaNDM-1; enzyme activity, inhibitor; with: nitrocefin 1.5 µM): 24500 nM
OC1Cc2ccccc2CC1N1CCC2(C=Cc3ccc(Br)cc32)CC1 (racemic) — Ki (Sigma intracellular receptor 2 (Tmem97, Rattus norvegicus, UniProt Q5U3Y7); radioligand binding; rat liver; with: [3H]DTG, 1 µM dextrallorphan mask): 350 ± 30 nM
C[C@H](NC(=O)[C@H](CCCCN)NC(=O)c1ccccc1N)C(=O)N[C@@H](CCCNC(=N)N)C(=O)N[C@@H](Cc1ccc(O)cc1)C(=O)N[C@@H](CO)C(=O)N[C@@H](C)C(=O)N[C@@H](CCC(N)=O)C(=O)NCCNc1ccc([N+](=O)[O-])cc1[N+](=O)[O-] — Ki (MCA2; enzyme activity, competitive inhibitor; Trypanosoma brucei; with: Z-FR-AMC substrate): 4100 nM
NC(=O)[C@@H]1CC/C=C\C[C@@H](NC(=O)[C@@H](N)Cc2ccc(O)cc2)C(=O)N[C@@H](Cc2ccccc2)C(=O)N[C@@H](Cc2ccccc2)C(=O)N1 — Ki (Oprm1; ligand displacement, radioligand; cell membranes): 0.281 nM
CC(C)[C@H]1NC(=O)C[C@H]2/C=C/CCSSC[C@@H](NC1=O)C(=O)N[C@H](Cc1cccc3ccccc13)C(=O)NCC(=O)O2 — inhibition (Serine/threonine-protein kinase NIM1 (NIM1K, Homo sapiens, UniProt Q8IY84); enzyme activity, inhibitor; 10 µM): -10.8%
O=C1NC(=O)c2c1c1cc(F)c[n+]3c1c1c2c2cc(O)ccc2[n]1[Ru-4]312([N]=C=S)[S+]3CC[S+]1CC[S+]2CC3 (stereo not shown) — remaining activity (SRSF protein kinase 1 (SRPK1, Homo sapiens, UniProt Q96SB4); enzyme activity; 100 nM, human enzyme, with: 10 µM ATP; reference: untreated): 38%
CC(=O)N[C@@H](CC(C)C)C(=O)N[C@@H](CC(C)C)C(=O)N[C@@H](CC(C)C)C(=O)N[C@@H](CC(C)C)C(=O)N[C@@H](CC(C)C)C(=O)N[C@@H](CCCN=C(N)N)C(=O)N[C@H](C(=O)N[C@@H](CCCCN)C(=O)N[C@@H](CCCN=C(N)N)C(N)=O)C(C)C — Ki (Proprotein convertase subtilisin/kexin type 7 (Homo sapiens, UniProt Q16549); enzyme activity, inhibitor): 1800 nM
CC[C@H](C)[C@@H]1NC(=O)[C@@H]2CCCN2C(=O)[C@@H](CS)NC(=O)[C@H](Cc2ccc(O)cc2)NC(=O)[C@@H](CCCNC(=N)N)NC(=O)[C@@H](CCCNC(=N)N)NC(=O)[C@H](CCC(=O)O)NC(=O)[C@@H]2CCCN2C1=O — Ki (blaNDM-1; enzyme activity, inhibitor; with: nitrocefin 1.5 µM): 2580 nM
CC(C)C[C@H](NC(=O)[C@H](CCCCN)NC(=O)[C@H](CCCCN)NC(=O)Cc1cccc(CNC(=O)CNC(=N)N)c1)B(O)O — Ki (Genome polyprotein NS2B-NS3 protease; inhibitor; Zika virus): 11.4 ± 1.2 nM
CC1(C)NC(=O)[C@@H](CC(=O)O)NC(=O)[C@H](CCC(=O)O)NC(=O)[C@H](CCCN)NC(=O)[C@H](C(c2ccccc2)c2ccccc2)NC(=O)[C@@H]2CCCN2C(=O)[C@H]2CCCN2C(=O)[C@H](CC(N)=O)NC1=O — Ki (blaNDM-1; enzyme activity, inhibitor; with: nitrocefin 1.5 µM): 267000 nM
CC(C)(C)C(=O)OCOP(=O)(OCOC(=O)C(C)(C)C)C1CCCN(O)C1=O (stereo not shown) — log LC50 (SN12C): > -4 log M
C[C@H](NC(=O)[C@H](CCC(=O)O)NC(=O)c1ccccc1N)C(=O)N[C@@H](CCCNC(=N)N)C(=O)N[C@@H](CO)C(=O)N[C@@H](CO)C(=O)N[C@@H](C)C(=O)N[C@@H](CCC(N)=O)C(=O)NCCNc1ccc([N+](=O)[O-])cc1[N+](=O)[O-] — Ki (MCA2; enzyme activity, competitive inhibitor; Trypanosoma brucei; with: Z-FR-AMC substrate): 3800 nM
CC(C)C[C@H](NC(=O)[C@H](CCCCN)NC(=O)[C@H](CCCCN)NC(=O)Cc1cccc(CNC(=O)CNC(=O)CN)c1)B(O)O — Ki (Genome polyprotein NS2B-NS3 protease; inhibitor; Zika virus): 294 ± 27 nM
COc1ccccc1-c1n[nH]c2nc(NC3CCN(C(=O)Cc4ccc(F)cc4F)CC3)ncc12 — relative abundance (bead binding, competition bead pull-down, item: LINJ.35.0070; Leishmania donovani extract; 10 µM; reference: vehicle): 1.14
CS(C)(=O)=Nc1ccc(-c2ccc(-c3nc4cc(O[C@@H]5CO[C@H]6[C@@H]5OC[C@H]6O)[nH]c4cc3F)cc2)cc1 — inhibition (Cyclin-dependent kinase 3, with cyclin E (CDK3, Homo sapiens, UniProt Q00526); enzyme activity, inhibitor; 10 µM): 4%
COc1cc(C[C@H](C)[C@H](C)Cc2ccc3c(c2)OCO3)ccc1O — Ki (Liver carboxylesterase 1 (CES1, Homo sapiens, UniProt P23141); enzyme activity, inhibitor): 564 nM
CC[C@H](C)[C@H](NC(=O)[C@H](CO)NC(=O)[C@H](Cc1ccc(O)cc1)NC(=O)[C@H](Cc1ccc(O)cc1)NC(=O)[C@H](CC(N)=O)NC(=O)CNC(=O)[C@H](CO)NC(=O)[C@H](Cc1ccc(O)cc1)NC(=O)[C@H](CO)NC(=O)[C@H](CO)NC(=O)[C@H](CC(N)=O)NC(=O)COCCOCCNC(=O)CN1CCN(CC(=O)O)CCN(CC(=O)O)CCN(CC(=O)O)CC1)C(=O)N[C@@H](CC(C)C)C(N)=O [copper-64 labelled] — tumour uptake (dynamic PET; mouse, tamoxifen-induced PDAC, blood; intravenous, 0.1 µg/mouse, 5.5 min): 9.65 %ID/mL
Cc1cc(O)cc(C)c1C[C@H](N)C(=O)N[C@H](CCCNC(=N)N)C(=O)N[C@@H](Cc1ccccc1)C(=O)N[C@@H](CCCCN)C(=O)NCCNC(=O)[C@@H]1Cc2ccccc2CN1C(=O)[C@@H](N)Cc1c(C)cc(O)cc1C — Ki (Oprm1; ligand displacement, radioligand; cell membranes): 4.44 nM
NCC[C@H]1NC(=O)[C@@H](CCC(N)=O)NC(=O)[C@H](CCC(=O)O)NC(=O)[C@@H]2CCCN2C(=O)[C@H](C(c2ccccc2)c2ccccc2)NC(=O)[C@@H]2CCCN2C(=O)[C@H]2CCCN2C(=O)[C@H](CCC(N)=O)NC1=O — Ki (blaNDM-1; enzyme activity, inhibitor; with: nitrocefin 1.5 µM): 152000 nM
COc1cc(OC)cc(B(O)O)c1 — Ki (Uncharacterized hydrolase SAUSA300_2518 (Staphylococcus aureus, UniProt Q2FDS6); enzyme activity, inhibitor): 137 nM
Cc1cc(O)cc(C)c1C[C@H](N)C(=O)N[C@H](CCCNC(=N)N)C(=O)N[C@@H](Cc1ccccc1)C(=O)N(C)CC(=O)N(C)Cc1cc(C(F)(F)F)cc(C(F)(F)F)c1 — Ki (Delta-type opioid receptor (OPRD1, Homo sapiens, UniProt P41143, N90S)): 5.17 ± 0.62 nM
C[C@H](NC(=O)[C@H](CCCCN)NC(=O)c1ccccc1N)C(=O)N[C@@H](Cc1ccccc1)C(=O)N[C@@H](CO)C(=O)N[C@@H](CO)C(=O)N[C@@H](C)C(=O)N[C@@H](CCC(N)=O)C(=O)NCCNc1ccc([N+](=O)[O-])cc1[N+](=O)[O-] — Ki (MCA2; enzyme activity, competitive inhibitor; Trypanosoma brucei; with: Z-FR-AMC substrate): 4200 nM
Cc1cc(O)cc(C)c1C[C@H](N)C(=O)N[C@H](CCCNC(=N)N)C(=O)N[C@@H](Cc1ccccc1)C(=O)N[C@@H](CCCCNC(=O)CN1CCN(CC(=O)O)CCN(CC(=O)O)CCN(CC(=O)O)CC1)C(N)=O — Ki (Delta-type opioid receptor (Oprd1, Mus musculus, UniProt P32300); binding; CD-1 mouse): 26.5 ± 5.5 nM
O[C@H]1[C@H](n2cnc3c(N[C@@H](C4CCC4)C4CC4)nc(I)nc32)[C@H]2C[C@@]2(C(F)F)[C@H]1O — Ki (5-hydroxytryptamine receptor 2B (HTR2B, Homo sapiens, UniProt P41595); ligand displacement, radioligand): 43.8 nM
CC(C)C[C@@H]1NC(=O)[C@@H](CCCNC(=N)N)NC(=O)[C@@H](CCCNC(=N)N)NC(=O)[C@H](CCC(=O)O)NC(=O)[C@@H]2CCCN2C(=O)[C@H](CC(C)C)NC(=O)[C@@H]2CCCN2C(=O)[C@@H](CS)NC1=O — Ki (blaNDM-1; enzyme activity, inhibitor; with: nitrocefin 1.5 µM): 6300 nM
Cc1cc(C(=O)Nc2nc3cccc(C)c3n2[C@H]2CCCCN(C(=O)/C=C/CN(C)C)C2)ccn1 — multinucleated cells (Trypanosoma brucei; propidium iodide flow cytometry; bloodstream form; concentration not given, 16 h): 10.6%
Cc1cc(O)cc(C)c1C[C@H](N)C(=O)N[C@H](CCCNC(=N)N)C(=O)N[C@@H](Cc1ccccc1)C(=O)N[C@@H](CCCCN)C(=O)NCCCCCCCCCCCCNC(=O)[C@H](Cc1ccccc1)NC(=O)[C@H](CC1CCCCC1)NC[C@@H]1Cc2ccccc2CN1C(=O)[C@@H](N)Cc1ccc(O)cc1 — Ki (Oprm1; ligand displacement, radioligand; cell membranes): 103 nM
COc1ccccc1-c1n[nH]c2nc(N[C@H]3CC[C@H](NS(=O)(=O)CC(C)C)CC3)ncc12 — relative abundance (bead binding, competition bead pull-down, item: LINJ.35.0070; Leishmania donovani extract; 10 µM; reference: vehicle): 0.99
C[C@H](NC(=O)[C@H](CO)NC(=O)[C@H](CO)NC(=O)[C@@H]1CCCN1C(=O)[C@H](C)NC(=O)[C@H](CCCCN)NC(=O)c1ccccc1N)C(=O)N[C@@H](CCC(N)=O)C(=O)NCCNc1ccc([N+](=O)[O-])cc1[N+](=O)[O-] — Ki (MCA2; enzyme activity, competitive inhibitor; Trypanosoma brucei; with: Z-FR-AMC substrate): 9400 nM
Cc1cc(O)cc(C)c1CCC(=O)N[C@@H]1CCCCC[C@@H](C(N)=O)NC(=O)[C@H](Cc2ccccc2)NC(=O)[C@H](Cc2ccccc2)NC1=O — Ki (Oprm1; ligand displacement, radioligand; cell membranes): 8.95 nM
O=C1NC2(CC2)COc2ncc(F)cc2[C@H]2COCCN2c2ccn3ncc1c3n2 — serum total protein (Sprague-Dawley rat, female, serum; oral, 20 mg/kg/day, end of treatment, 4-week subacute toxicity): 61.6 ± 2.6 g/L

Repeated from above:
CC[C@H](C)[C@H](NC(=O)[C@H](CO)NC(=O)[C@H](Cc1ccc(O)cc1)NC(=O)[C@H](Cc1ccc(O)cc1)NC(=O)[C@H](CC(N)=O)NC(=O)CNC(=O)[C@H](CO)NC(=O)[C@H](Cc1ccc(O)cc1)NC(=O)[C@H](CO)NC(=O)[C@H](CO)NC(=O)[C@H](CC(N)=O)NC(=O)COCCOCCNC(=O)CN1CCN(CC(=O)O)CCN(CC(=O)O)CCN(CC(=O)O)CC1)C(=O)N[C@@H](CC(C)C)C(N)=O [copper-64 labelled] — tumour uptake (dynamic PET; mouse, tamoxifen-induced PDAC, blood; intravenous, 0.1 µg/mouse, 5.5 min): 9.65 %ID/mL
COc1cc(C[C@H](C)[C@H](C)Cc2ccc3c(c2)OCO3)ccc1O — Ki (Liver carboxylesterase 1 (CES1, Homo sapiens, UniProt P23141); enzyme activity, inhibitor): 564 nM
